Measurements from different studies.
Numbers after ± are the reported error.

| SMILES | tested on | assay | system | setting | how to read | measurement | value |
| --- | --- | --- | --- | --- | --- | --- | --- |
| OC(CCN1CCCCC1)(c1ccccc1)C1CC2C=CC1C2 (stereo not drawn) |  | resting-state EEG | healthy elderly humans | oral, 2 mg, eyes closed, LS mean |  | EEG theta power, O1 Pz | 10 µV² |
| N#Cc1ccc2c(c1)[C@H]1CCCN(C(=O)c3ccc4[nH]cnc4c3)[C@H]1C2 |  | item: HDL | human, Phase II trial | oral, 240 mg once daily, day 28, adjusted mean, SE |  | change from baseline | -0.85 mg/dL |
| C[C@H](Oc1ccc(Br)cc1-c1ccon1)C(=O)O |  | relative refractory period | human, tibialis anterior muscle | 800 mg, SAD |  | difference from placebo | 0.231 ms |
| N#Cc1ccn2c(-c3ccncc3)c(-c3ccc(F)cc3)nc2c1 |  | kinase binding, competitor, MIB/MS competition, item: SHA3 | Candida albicans cell lysate | 1 µM | relative to: DMSO | log2 fold change | -0.252 |
| O=C(NCC1CCOCC1)c1ccc([C@H]2[C@@H](F)[C@@H](F)C[C@@H](F)[C@H]2F)cc1 |  | liver microsome stability | cynomolgus liver microsomes | 1 µM |  | hepatic clearance | 8.9 mL/min/kg |
| CC(C)NCC(O)c1ccc(O)c(O)c1 (stereo not drawn) |  |  | ventricular cardiomyocytes, C57BL/6 mouse | dose not given, 0.616 s |  | sarcomere length | 1.71 µm |
| Cn1cc(C2=C(c3ccc(Cl)cc3Cl)C(=O)NC2=O)c2ccccc21 | Trypanosoma brucei | cell growth |  |  |  | EC50 | > 3000 nM |
| Cc1n[nH]c2ccc(-c3cc(OC[C@@H](N)Cc4ccccc4)cnc3-c3ccoc3)cc12 |  | kinase binding, competitor, MIB/MS competition, item: ENV7 | Candida albicans cell lysate | 1 µM | relative to: DMSO | log2 fold change | 0.16 |
| Cn1cc(-c2ccc(-c3cncc(Cl)c3N3CCC4(CCNC4=O)CC3)cc2)cn1 | COLO 205 | gene expression, microarray, item: TTLL5 mRNA |  | concentration not given, 2 h | relative to: untreated cells | log2 fold change | -2.29 |
| N#Cc1ccc2c(-c3ccncc3)c(-c3ccc(F)cc3)nn2c1 |  | kinase binding, competitor, MIB/MS competition, item: HRK1 | Candida albicans cell lysate | 1 µM | relative to: DMSO | log2 fold change | 0.236 |
| O=C(O)CNC(=O)Cc1ccccc1 |  |  | ventricular cardiomyocytes, C57BL/6 mouse | dose not given, 0.644 s |  | sarcomere length | 1.71 µm |
| O=C(c1ccc(C2CCCCC2)cc1)N1CC(O)C1 |  | hepatocyte stability | cryopreserved human hepatocytes | 1 µM |  | hepatic clearance | 14 mL/min/kg |
| C[C@H]1C[C@H]2CSC(N)=N[C@@]2(c2nc(NC(=O)c3ccc(OC(F)F)cn3)cs2)CO1 |  | item: total Aβ | healthy adults, plasma | 40 mg single dose, 24 h post-dose | relative to: placebo | percent change from baseline | -49.1% |
| NC(=O)c1cnc2[nH]ccc2c1N[C@@H]1[C@@H]2CC3C[C@H]1C[C@@](O)(C3)C2 |  | CD4+ effector memory T cells, flow cytometry | Caucasian humans, peripheral blood | 20 mg single dose | relative to: baseline | percent change | 0.03% |
| CSCCNc1nc(SCCC(F)(F)F)nc2c1ncn2[C@@H]1O[C@H](COP(=O)(O)OP(=O)(O)C(Cl)(Cl)P(=O)(O)O)[C@@H](O)[C@H]1O |  | light transmittance aggregometry | human patients, platelet-rich plasma | dose not given, 3 h, together with: ADP 5 µM |  | inhibition of platelet aggregation | 19.4 ± 21.4% |

Excerpt of the above:
| SMILES | tested on | assay | system | setting | how to read | measurement | value |
| --- | --- | --- | --- | --- | --- | --- | --- |
| N#Cc1ccc2c(c1)[C@H]1CCCN(C(=O)c3ccc4[nH]cnc4c3)[C@H]1C2 |  | item: HDL | human, Phase II trial | oral, 240 mg once daily, day 28, adjusted mean, SE |  | change from baseline | -0.85 mg/dL |
| C[C@H](Oc1ccc(Br)cc1-c1ccon1)C(=O)O |  | relative refractory period | human, tibialis anterior muscle | 800 mg, SAD |  | difference from placebo | 0.231 ms |
